{"data": "Assay results pooled from the literature", "BCHE": "Cholinesterase (BCHE, Homo sapiens, UniProt P06276)", "ACHE": "Acetylcholinesterase (ACHE, Homo sapiens, UniProt P22303)", "UniProt P22303, sequence (whole entry, looked up)": "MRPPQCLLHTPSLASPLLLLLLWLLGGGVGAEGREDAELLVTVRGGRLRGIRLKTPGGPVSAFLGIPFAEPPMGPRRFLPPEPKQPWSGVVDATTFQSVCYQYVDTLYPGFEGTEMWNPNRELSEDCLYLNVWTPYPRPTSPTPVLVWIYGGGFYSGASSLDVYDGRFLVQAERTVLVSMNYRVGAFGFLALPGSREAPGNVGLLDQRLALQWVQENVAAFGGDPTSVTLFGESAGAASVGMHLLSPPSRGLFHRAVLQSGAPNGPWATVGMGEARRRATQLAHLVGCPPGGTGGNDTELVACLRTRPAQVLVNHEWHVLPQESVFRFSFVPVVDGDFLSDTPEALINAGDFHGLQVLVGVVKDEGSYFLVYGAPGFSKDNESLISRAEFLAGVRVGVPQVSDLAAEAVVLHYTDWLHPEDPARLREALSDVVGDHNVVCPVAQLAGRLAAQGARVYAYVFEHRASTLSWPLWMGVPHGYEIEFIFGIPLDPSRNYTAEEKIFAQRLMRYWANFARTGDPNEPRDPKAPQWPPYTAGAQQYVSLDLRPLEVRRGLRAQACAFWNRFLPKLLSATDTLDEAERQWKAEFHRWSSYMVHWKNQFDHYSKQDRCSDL", "UniProt P06276, sequence (whole entry, looked up)": "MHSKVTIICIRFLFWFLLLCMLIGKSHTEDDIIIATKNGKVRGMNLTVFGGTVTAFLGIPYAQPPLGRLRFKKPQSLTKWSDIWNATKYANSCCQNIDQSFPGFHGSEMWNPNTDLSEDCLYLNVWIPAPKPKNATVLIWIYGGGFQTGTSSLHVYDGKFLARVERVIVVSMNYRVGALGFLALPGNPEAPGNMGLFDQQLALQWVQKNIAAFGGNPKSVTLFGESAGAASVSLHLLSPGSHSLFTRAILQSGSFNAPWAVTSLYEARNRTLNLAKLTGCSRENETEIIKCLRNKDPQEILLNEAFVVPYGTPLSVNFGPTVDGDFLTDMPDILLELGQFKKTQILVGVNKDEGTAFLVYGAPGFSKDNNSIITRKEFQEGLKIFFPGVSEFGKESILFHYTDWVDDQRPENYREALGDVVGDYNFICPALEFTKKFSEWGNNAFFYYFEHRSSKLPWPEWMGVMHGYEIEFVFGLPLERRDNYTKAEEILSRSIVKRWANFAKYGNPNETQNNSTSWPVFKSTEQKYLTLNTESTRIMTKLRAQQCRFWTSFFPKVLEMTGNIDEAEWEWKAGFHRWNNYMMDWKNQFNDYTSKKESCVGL", "UniProt Q12866, sequence (whole entry, looked up)": "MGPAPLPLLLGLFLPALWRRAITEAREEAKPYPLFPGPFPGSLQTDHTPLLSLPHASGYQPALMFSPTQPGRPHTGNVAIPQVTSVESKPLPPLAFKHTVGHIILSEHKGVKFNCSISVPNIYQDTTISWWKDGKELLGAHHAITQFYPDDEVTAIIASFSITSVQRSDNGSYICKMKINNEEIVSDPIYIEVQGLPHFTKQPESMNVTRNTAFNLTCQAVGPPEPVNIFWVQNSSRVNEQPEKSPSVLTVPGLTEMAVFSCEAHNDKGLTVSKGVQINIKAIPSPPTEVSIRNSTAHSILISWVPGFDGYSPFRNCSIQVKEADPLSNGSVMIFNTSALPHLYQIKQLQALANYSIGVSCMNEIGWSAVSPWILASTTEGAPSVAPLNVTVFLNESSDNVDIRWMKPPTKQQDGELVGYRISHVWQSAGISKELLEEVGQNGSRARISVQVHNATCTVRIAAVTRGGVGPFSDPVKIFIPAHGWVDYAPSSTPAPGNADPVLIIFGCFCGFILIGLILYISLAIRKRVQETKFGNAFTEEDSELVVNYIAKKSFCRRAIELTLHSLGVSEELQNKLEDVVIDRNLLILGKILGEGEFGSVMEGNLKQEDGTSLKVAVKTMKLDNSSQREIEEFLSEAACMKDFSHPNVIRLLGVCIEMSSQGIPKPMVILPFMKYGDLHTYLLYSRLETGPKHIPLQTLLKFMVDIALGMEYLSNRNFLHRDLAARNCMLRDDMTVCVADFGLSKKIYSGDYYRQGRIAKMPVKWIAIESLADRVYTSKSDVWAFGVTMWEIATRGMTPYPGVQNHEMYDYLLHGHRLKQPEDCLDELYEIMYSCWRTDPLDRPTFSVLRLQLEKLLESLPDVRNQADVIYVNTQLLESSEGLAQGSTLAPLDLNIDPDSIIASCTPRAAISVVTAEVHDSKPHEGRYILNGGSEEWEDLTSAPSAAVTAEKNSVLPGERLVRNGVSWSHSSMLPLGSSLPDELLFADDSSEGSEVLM", "UniProt P53341, sequence (whole entry, looked up)": "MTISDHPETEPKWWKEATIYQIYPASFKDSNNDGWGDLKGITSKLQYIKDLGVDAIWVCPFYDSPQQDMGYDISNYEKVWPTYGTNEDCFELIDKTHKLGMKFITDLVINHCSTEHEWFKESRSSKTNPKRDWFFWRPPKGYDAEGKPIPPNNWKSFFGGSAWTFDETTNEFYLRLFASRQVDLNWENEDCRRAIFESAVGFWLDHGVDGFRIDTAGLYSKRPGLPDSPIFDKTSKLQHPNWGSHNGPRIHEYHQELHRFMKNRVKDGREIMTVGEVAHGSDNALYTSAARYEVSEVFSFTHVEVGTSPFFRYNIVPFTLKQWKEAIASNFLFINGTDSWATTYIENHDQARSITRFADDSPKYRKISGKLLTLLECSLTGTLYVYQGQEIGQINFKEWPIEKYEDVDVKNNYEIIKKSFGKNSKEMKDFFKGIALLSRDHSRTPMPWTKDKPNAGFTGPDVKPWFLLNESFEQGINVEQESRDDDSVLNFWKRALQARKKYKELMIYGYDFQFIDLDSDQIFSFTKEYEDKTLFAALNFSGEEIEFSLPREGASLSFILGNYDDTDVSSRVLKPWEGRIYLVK", "UniProt P08908, sequence (whole entry, looked up)": "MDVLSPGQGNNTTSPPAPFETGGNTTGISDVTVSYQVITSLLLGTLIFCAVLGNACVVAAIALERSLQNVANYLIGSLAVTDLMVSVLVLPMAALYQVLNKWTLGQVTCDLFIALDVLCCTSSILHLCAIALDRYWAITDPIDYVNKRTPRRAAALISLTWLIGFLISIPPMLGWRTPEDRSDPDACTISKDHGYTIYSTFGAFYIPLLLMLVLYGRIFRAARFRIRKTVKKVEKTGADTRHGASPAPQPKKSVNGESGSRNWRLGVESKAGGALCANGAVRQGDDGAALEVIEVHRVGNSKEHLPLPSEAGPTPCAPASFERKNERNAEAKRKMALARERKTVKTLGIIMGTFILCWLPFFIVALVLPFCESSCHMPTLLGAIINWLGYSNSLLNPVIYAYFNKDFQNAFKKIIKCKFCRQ", "UniProt P35462, sequence (whole entry, looked up)": "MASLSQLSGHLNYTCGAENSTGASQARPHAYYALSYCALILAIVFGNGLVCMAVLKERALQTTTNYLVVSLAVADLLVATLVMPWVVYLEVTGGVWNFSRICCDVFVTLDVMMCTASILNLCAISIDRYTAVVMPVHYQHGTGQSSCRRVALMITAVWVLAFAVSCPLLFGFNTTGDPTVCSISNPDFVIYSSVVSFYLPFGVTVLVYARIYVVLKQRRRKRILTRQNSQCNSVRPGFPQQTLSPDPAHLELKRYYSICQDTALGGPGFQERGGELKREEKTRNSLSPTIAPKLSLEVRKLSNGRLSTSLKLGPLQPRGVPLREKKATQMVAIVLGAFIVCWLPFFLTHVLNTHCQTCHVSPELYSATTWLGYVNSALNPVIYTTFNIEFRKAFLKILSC", "UniProt P06493, sequence (whole entry, looked up)": "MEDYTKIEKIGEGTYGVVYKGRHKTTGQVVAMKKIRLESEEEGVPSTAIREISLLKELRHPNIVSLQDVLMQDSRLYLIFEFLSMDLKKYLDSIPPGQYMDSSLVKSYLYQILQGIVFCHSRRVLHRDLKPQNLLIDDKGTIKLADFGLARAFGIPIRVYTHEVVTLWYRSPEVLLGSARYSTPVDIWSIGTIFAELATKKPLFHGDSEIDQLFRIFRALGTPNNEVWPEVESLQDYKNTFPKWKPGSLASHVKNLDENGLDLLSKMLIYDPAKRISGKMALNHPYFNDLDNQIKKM", "UniProt P43088, sequence (whole entry, looked up)": "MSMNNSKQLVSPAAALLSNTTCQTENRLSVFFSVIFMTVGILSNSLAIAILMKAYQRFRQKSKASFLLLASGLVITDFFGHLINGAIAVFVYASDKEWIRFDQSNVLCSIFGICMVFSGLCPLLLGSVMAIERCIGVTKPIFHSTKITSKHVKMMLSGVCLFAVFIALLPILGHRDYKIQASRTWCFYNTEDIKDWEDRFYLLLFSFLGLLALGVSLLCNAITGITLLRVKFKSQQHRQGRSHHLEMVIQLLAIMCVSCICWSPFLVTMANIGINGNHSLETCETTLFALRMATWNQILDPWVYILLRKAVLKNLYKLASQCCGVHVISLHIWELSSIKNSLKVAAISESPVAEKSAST", "UniProt P28335, sequence (whole entry, looked up)": "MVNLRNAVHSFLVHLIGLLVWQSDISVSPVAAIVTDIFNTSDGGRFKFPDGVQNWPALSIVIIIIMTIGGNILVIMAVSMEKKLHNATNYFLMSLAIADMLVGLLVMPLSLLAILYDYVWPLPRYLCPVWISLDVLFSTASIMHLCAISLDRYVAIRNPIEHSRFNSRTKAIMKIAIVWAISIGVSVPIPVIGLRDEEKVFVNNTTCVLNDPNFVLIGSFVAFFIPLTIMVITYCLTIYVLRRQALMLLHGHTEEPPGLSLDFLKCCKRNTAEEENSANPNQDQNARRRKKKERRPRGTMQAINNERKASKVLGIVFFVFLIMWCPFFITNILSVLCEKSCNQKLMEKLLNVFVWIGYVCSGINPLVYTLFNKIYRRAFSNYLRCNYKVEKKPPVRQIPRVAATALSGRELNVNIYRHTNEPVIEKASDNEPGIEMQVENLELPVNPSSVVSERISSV"}
{"Structure (SMILES)": "Nc1ccncc1", "target": "SCN1A (Homo sapiens, UniProt P35498)", "assay": "ion current, inhibitor, patch clamp", "conditions": "30 µM", "measurement": "inhibition", "result": "-241%"}
{"Structure (SMILES)": "O=c1cc(N2CCOCC2)oc2c(-c3ccccc3)cccc12", "target": "PIK3CB (Homo sapiens, UniProt P42338)", "assay": "enzyme activity, inhibitor, ADP detection", "conditions": "10 µM", "measurement": "inhibition", "result": "81.7%"}
{"Structure (SMILES)": "COc1cc(/C=C/C(=O)O)ccc1OCc1cn(CC(=O)Nc2ccccc2[N+](=O)[O-])nn1", "target": "BCHE", "assay": "enzyme activity, inhibitor, Ellman", "conditions": "40 µM", "measurement": "inhibition", "result": "25.2%"}
{"Structure (SMILES)": "C[C@H]1O[C@H](O[C@H]2[C@H](O)[C@@H](O)[C@@H](O[C@H]3[C@H](O)[C@@H](O)C(O)O[C@@H]3CO)O[C@@H]2CO)[C@H](O)[C@@H](O)[C@@H]1N[C@H]1C=C(CO)[C@@H](O)[C@H](O)[C@H]1O (some centres unmarked)", "target": "MAL12 (Saccharomyces cerevisiae S288c, UniProt P53341)", "assay": "enzyme activity, inhibitor, absorbance", "conditions": "20 µg/mL", "measurement": "inhibition", "result": "21.4%"}
{"Structure (SMILES)": "C#Cc1n[nH]c2c(-c3cn([C@@H](C)c4ccccn4)c(=O)[nH]c3=O)cc(F)cc12", "target": "MERTK (Homo sapiens, UniProt Q12866)", "assay": "enzyme activity, inhibitor", "conditions": "0.1 µM", "measurement": "inhibition", "result": "75.3%"}
{"Structure (SMILES)": "CCN(CC)CCCC[C@H](NC(=O)[C@H](CC(C)C)NC(=O)[C@H](C)NC(=O)[C@H](Cc1ccccc1)NC(=O)c1ccc(C(C)(C)C)cc1)C(=O)N[C@@H](CO)C(=O)OC", "target": "EDNRA (Homo sapiens, UniProt P25101)", "assay": "ligand displacement, radioligand", "conditions": "10 µM", "measurement": "inhibition", "result": "-12%"}
{"Structure (SMILES)": "CC[C@H](C)[C@H](NC(=O)[C@@H](NC(=O)[C@H](N)Cc1ccccc1)C(C)C)C(=O)N[C@@H](C)C(N)=O", "target": "APP (Homo sapiens, UniProt P05067)", "assay": "amyloid aggregation, inhibitor, fluorescence", "conditions": "2 µM, 24 h", "measurement": "inhibition", "result": "100%"}
{"Structure (SMILES)": "COc1cc(/C=C/C(=O)O)ccc1OCc1cn(CC(=O)Nc2ccc([N+](=O)[O-])cc2)nn1", "target": "ACHE", "assay": "enzyme activity, inhibitor, Ellman", "conditions": "40 µM", "measurement": "inhibition", "result": "37.6%"}
{"Structure (SMILES)": "CC(C)CC(=O)OC[C@H]1O[C@@](C#N)(c2ccc3c(N)ncnn23)[C@H](O)[C@@H]1O", "target": "PTGS2 (Homo sapiens, UniProt P35354)", "assay": "enzyme activity, inhibitor", "conditions": "20 µM", "measurement": "inhibition", "result": "14%"}
{"Structure (SMILES)": "COc1cc(/C=C/C(=O)O)ccc1OCc1cn(CC(=O)Nc2ccccc2)nn1", "target": "BCHE", "assay": "enzyme activity, inhibitor, Ellman", "conditions": "40 µM", "measurement": "inhibition", "result": "24%"}
{"Structure (SMILES)": "[2H]c1c([2H])c([C@]2([2H])CCCN2C(=O)C(C)(C)Oc2ccc3cn[nH]c3c2)c([2H])c([2H])c1C([2H])([2H])[2H]", "target": "CAMK2B (Homo sapiens, UniProt Q13554)", "assay": "binding, competition with immobilised ligand", "conditions": "1 µM", "measurement": "remaining binding", "result": "72%"}
{"Structure (SMILES)": "c1cncc([C@@H]2CCCN2)c1", "target": "DRD3 (Homo sapiens, UniProt P35462)", "assay": "ligand displacement", "conditions": "50 µM", "measurement": "inhibition", "result": "11.5%"}
{"Structure (SMILES)": "CC(C)C[C@H]1C(=O)N2CCC[C@H]2[C@]2(O)O[C@](NC(=O)[C@@H]3C=C4c5cccc6[nH]c(Br)c(c56)C[C@H]4[N+](C)(C)C3)(C(C)C)C(=O)N12", "target": "HTR2C (Homo sapiens, UniProt P28335)", "assay": "ligand displacement, radioligand", "conditions": "10 µM", "measurement": "inhibition", "result": "70.9%"}
{"Structure (SMILES)": "CCc1ccc(N2C(=O)/C(=C3/C(=O)N(C)c4ccc(Cl)cc43)NC2=S)cc1", "target": "ACHE", "assay": "enzyme activity, inhibitor, Ellman", "conditions": "0.5 µM", "measurement": "inhibition", "result": "52%"}
{"Structure (SMILES)": "COc1cc(/C=C/C(=O)O)ccc1OCc1cn(CC(=O)Nc2cccc(Cl)c2)nn1", "target": "ACHE", "assay": "enzyme activity, inhibitor, Ellman", "conditions": "40 µM", "measurement": "inhibition", "result": "25.5%"}
{"Structure (SMILES)": "CC(C)OC(=O)[C@H](C)N[P@](=O)(CO[C@H](C)Cn1cnc2c(N)ncnc21)Oc1ccccc1", "target": "CDK1 (Homo sapiens, UniProt P06493)", "assay": "enzyme activity, inhibitor, ADP detection", "conditions": "10 µM", "measurement": "inhibition", "result": "66%"}
{"Structure (SMILES)": "COc1cc(/C=C/C(=O)O)ccc1OCc1cn(CC(=O)Nc2ccc([N+](=O)[O-])cc2C)nn1", "target": "ACHE", "assay": "enzyme activity, inhibitor, Ellman", "conditions": "40 µM", "measurement": "inhibition", "result": "25.6%"}
{"Structure (SMILES)": "CN1CCC[C@H]1c1cccnc1", "target": "HTR1A (Homo sapiens, UniProt P08908)", "assay": "ligand displacement", "conditions": "50 µM", "measurement": "inhibition", "result": "1.47%"}
{"Structure (SMILES)": "CN1C(=O)/C(=N\\Nc2ncc(-c3cc4ccccc4oc3=O)s2)c2cc(Cl)ccc21", "target": "ACHE", "assay": "enzyme activity, inhibitor, Ellman", "conditions": "0.1 µM", "measurement": "inhibition", "result": "52%"}
{"Structure (SMILES)": "COc1cc(/C=C/C(=O)O)ccc1OCc1cn(CC(=O)Nc2ccc(Cl)cc2Cl)nn1", "target": "ACHE", "assay": "enzyme activity, inhibitor, Ellman", "conditions": "40 µM", "measurement": "inhibition", "result": "26.1%"}
{"Structure (SMILES)": "CN1C(=S)N(c2ccccc2)C(=O)/C1=C1/C(=O)N(C)c2ccc(Cl)cc21", "target": "ACHE", "assay": "enzyme activity, inhibitor, Ellman", "conditions": "0.5 µM", "measurement": "inhibition", "result": "30%"}
{"Structure (SMILES)": "COc1cc(/C=C/C(=O)O)ccc1OCc1cn(CC(=O)Nc2ccc(O)cc2)nn1", "target": "BCHE", "assay": "enzyme activity, inhibitor, Ellman", "conditions": "40 µM", "measurement": "inhibition", "result": "30.4%"}
{"Structure (SMILES)": "O=C(Nc1cccnn1)N1CCN([C@@H]2CCOc3cc(C(F)(F)F)ccc32)CC1", "target": "PTGFR (Homo sapiens, UniProt P43088)", "assay": "cell-free assay", "conditions": "20 µM", "measurement": "inhibition", "result": "-4%"}
{"note": "A few entries again:"}
{"Structure (SMILES)": "C[C@H]1O[C@H](O[C@H]2[C@H](O)[C@@H](O)[C@@H](O[C@H]3[C@H](O)[C@@H](O)C(O)O[C@@H]3CO)O[C@@H]2CO)[C@H](O)[C@@H](O)[C@@H]1N[C@H]1C=C(CO)[C@@H](O)[C@H](O)[C@H]1O (some centres unmarked)", "target": "MAL12 (Saccharomyces cerevisiae S288c, UniProt P53341)", "assay": "enzyme activity, inhibitor, absorbance", "conditions": "20 µg/mL", "measurement": "inhibition", "result": "21.4%"}
{"Structure (SMILES)": "C#Cc1n[nH]c2c(-c3cn([C@@H](C)c4ccccn4)c(=O)[nH]c3=O)cc(F)cc12", "target": "MERTK (Homo sapiens, UniProt Q12866)", "assay": "enzyme activity, inhibitor", "conditions": "0.1 µM", "measurement": "inhibition", "result": "75.3%"}
